# Measured values collected from several papers.
# Protocols differ between the studies behind these lines.
# ZTP riboswitch RNA: ZTP riboswitch RNA (Fusobacterium ulcerans)
# T1: dsDNA, abasic THF site, position 11; chain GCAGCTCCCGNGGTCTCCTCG; chain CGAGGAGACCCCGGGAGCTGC
# T2: T-box antiterminator RNA; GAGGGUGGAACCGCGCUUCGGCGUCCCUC
# T3: dsDNA, CGG G:G mismatch, 11-mer duplex; chain CTAACGGAATG; chain CATTCGGTTAG
# T4: dsDNA, self-complementary, T9 linker hairpin; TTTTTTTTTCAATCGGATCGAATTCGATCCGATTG
# T5: RNA riboswitch, preQ1 riboswitch (Thermoanaerobacter tengcongensis); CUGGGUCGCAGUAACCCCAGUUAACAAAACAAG
# T6: DNA aptamer 32 nt truncation; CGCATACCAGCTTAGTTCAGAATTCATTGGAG
# T7: ZTP riboswitch RNA (Fusobacterium ulcerans); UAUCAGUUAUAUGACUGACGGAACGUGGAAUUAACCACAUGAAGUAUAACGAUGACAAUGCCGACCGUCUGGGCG
# T8: TERRA RNA G4, 5-benzofuranyl uridine in one loop (Homo sapiens); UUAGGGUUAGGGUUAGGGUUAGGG
# T9: RNA duplex, 2'-OMe, pseudouridine, bulge, abasic (Homo sapiens); chain CAGAGUAAGUAU; chain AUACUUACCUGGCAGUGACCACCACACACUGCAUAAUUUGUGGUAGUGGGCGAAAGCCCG
# T10: DNA aptamer; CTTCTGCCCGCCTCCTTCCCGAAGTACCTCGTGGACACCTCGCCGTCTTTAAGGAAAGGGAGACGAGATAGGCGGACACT
# Chain of UniProt O60656 (whole entry, looked up): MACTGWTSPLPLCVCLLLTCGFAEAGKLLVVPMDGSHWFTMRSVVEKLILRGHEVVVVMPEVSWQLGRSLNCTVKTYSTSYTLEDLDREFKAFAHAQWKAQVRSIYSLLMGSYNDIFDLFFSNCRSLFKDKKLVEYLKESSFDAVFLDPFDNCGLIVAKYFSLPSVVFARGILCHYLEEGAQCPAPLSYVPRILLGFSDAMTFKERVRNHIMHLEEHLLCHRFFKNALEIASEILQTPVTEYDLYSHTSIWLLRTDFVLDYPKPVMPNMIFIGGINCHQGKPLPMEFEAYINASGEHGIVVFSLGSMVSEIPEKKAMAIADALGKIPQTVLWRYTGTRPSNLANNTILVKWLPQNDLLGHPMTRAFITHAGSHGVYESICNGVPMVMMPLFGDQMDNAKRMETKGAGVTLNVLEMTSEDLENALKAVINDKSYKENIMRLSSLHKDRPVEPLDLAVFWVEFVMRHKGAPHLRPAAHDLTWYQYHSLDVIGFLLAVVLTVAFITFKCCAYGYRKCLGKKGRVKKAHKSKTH
# Chain of UniProt P80188 (whole entry, looked up): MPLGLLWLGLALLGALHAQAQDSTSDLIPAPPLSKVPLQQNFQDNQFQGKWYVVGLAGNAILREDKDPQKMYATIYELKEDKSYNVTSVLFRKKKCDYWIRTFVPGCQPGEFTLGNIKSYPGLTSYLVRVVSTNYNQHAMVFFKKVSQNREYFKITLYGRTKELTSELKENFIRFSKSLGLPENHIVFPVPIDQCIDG
# Chain of UniProt Q9HB20 (whole entry, looked up): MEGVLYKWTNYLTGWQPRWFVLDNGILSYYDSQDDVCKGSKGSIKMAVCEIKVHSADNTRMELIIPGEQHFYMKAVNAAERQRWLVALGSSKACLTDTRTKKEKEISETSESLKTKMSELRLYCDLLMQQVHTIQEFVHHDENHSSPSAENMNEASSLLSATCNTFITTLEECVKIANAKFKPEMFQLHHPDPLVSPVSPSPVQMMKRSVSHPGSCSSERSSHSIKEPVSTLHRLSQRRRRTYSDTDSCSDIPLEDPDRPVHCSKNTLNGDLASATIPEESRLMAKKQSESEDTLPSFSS
Molecule,target or system,test,test system,setting,quantity,value
CCCCCCCCCCCCCCCC(=O)O,"Neutrophil gelatinase-associated lipocalin (LCN2, Homo sapiens, UniProt P80188)","binding, isothermal titration calorimetry",,"25 °C, unreliable, far above titrant range",Kd,2740 µM
Cc1nc2nc(N)ccc2c(C)c1C,"T1, dsDNA, abasic THF site, position 11",fluorescence titration,,"pH 7.0, 20 °C, NaCl 100 mM",Kd,0.053 µM
CC(=O)c1ccc(NC(=O)OC[C@@H]2OC(=O)N[C@H]2CN2CCN(c3ccccc3)CC2)cc1,"T2, T-box antiterminator RNA",FRET binding titration,,"100 nM, 130 min, pH 6.5, 25 °C, NaCl 50 mM, single-site fit, with: MgCl2 5 mM",Kd,1.6 µM
Cc1ccc2ccc(NC(=O)CCNCCC(=O)Nc3ccc4ccc(C)nc4n3)nc2n1,"T3, dsDNA, CGG G:G mismatch, 11-mer duplex",ITC,,"apparent, one-site model",Kd,0.391 µM
CN1CCN(CCCN2C(=O)c3ccc4c5c(ccc(c35)C2=O)C(=O)N(CCCN2CCN(C)CC2)C4=O)CC1,"T4, dsDNA, self-complementary, T9 linker hairpin",SPR,,"KCl 100 mM, two-site fit",Kd,17.1 µM
"UGT1A9 (Homo sapiens, UniProt O60656)",O=C(/C=C/c1ccc(O)cc1)CC(=O)/C=C/c1ccc(O)cc1,steady-state kinetics,,"pH 7.4, 37 °C",Vmax/Km,8 µL/min/mg
NCc1c[nH]c2nc(N)[nH]c(=O)c12,"T5, RNA riboswitch, preQ1 riboswitch (Thermoanaerobacter tengcongensis)",microscale thermophoresis,,"pH 7.5, KCl 100 mM, apparent, single-site fit",Kd,0.027 µM
NC[C@H]1O[C@H](O[C@H]2[C@H](O)[C@@H](O[C@H]3O[C@H](CO)[C@@H](O)[C@H](N)[C@H]3O)[C@H](N)C[C@@H]2N)[C@H](O)[C@@H](O)[C@@H]1O,"T6, DNA aptamer 32 nt truncation",MST,,"25 °C, NaCl 100 mM",Kd,400 µM
NC(=O)c1ncn(-c2ccncc2)c1N,"T7, ZTP riboswitch RNA (Fusobacterium ulcerans)",ITC,,"pH 7.4, 37 °C, KCl 150 mM",Kd,1 µM
CN(C)c1ccc(Nc2c3ccc(NC(=O)CCN4CCCC4)cc3nc3cc(NC(=O)CCN4CCCC4)ccc23)cc1,"T8, TERRA RNA G4, 5-benzofuranyl uridine in one loop (Homo sapiens)",fluorescence titration,,"pH 7.5, 20 °C, NaCl 100 mM, apparent, parallel G-quadruplex",Kd,0.244 µM
CC1(C)CC(Oc2ccc(-c3ccc(-c4cn[nH]c4)cc3O)nn2)CC(C)(C)N1,"T9, RNA duplex, 2'-OMe, pseudouridine, bulge, abasic (Homo sapiens)",microscale thermophoresis,,"pH 7.0, 25 °C, NaCl 200 mM, with U1-C protein",Kd,2.69 µM
Cc1nc(C(N)=O)c(N)n1CCO,"T7, ZTP riboswitch RNA (Fusobacterium ulcerans)",ITC,,"pH 7.4, 37 °C, KCl 150 mM",Kd,150 µM
phosphatidylinositol 4-phosphate,"PLEKHA3, PH domain (Homo sapiens, UniProt Q9HB20)",,DMPC/DHPC bicelles,"pH 6.5, estimate, saturation not reached",Kd,200 to 300 µM
CC(C)=CCC[C@](C)(O[C@@H]1O[C@H](CO)[C@@H](O)[C@H](O)[C@H]1O)[C@H]1CC[C@]2(C)[C@@H]1[C@H](O)C[C@@H]1[C@@]3(C)CC[C@H](O)C(C)(C)[C@@H]3[C@@H](O[C@@H]3O[C@H](CO)[C@@H](O)[C@H](O)[C@H]3O[C@@H]3O[C@@H](C)[C@H](O)[C@@H](O)[C@H]3O)C[C@]12C,"T10, DNA aptamer",fluorescence of eluted aptamer,,"pH 8.5, room temperature",Kd,6.7 µM

# Some of these lines once more:
Molecule,target or system,test,test system,setting,quantity,value
CC(C)=CCC[C@](C)(O[C@@H]1O[C@H](CO)[C@@H](O)[C@H](O)[C@H]1O)[C@H]1CC[C@]2(C)[C@@H]1[C@H](O)C[C@@H]1[C@@]3(C)CC[C@H](O)C(C)(C)[C@@H]3[C@@H](O[C@@H]3O[C@H](CO)[C@@H](O)[C@H](O)[C@H]3O[C@@H]3O[C@@H](C)[C@H](O)[C@@H](O)[C@H]3O)C[C@]12C,"T10, DNA aptamer",fluorescence of eluted aptamer,,"pH 8.5, room temperature",Kd,6.7 µM
CN(C)c1ccc(Nc2c3ccc(NC(=O)CCN4CCCC4)cc3nc3cc(NC(=O)CCN4CCCC4)ccc23)cc1,"T8, TERRA RNA G4, 5-benzofuranyl uridine in one loop (Homo sapiens)",fluorescence titration,,"pH 7.5, 20 °C, NaCl 100 mM, apparent, parallel G-quadruplex",Kd,0.244 µM
